Results collected from several papers.
Protocols differ between the studies behind these lines. ± gives the spread as reported.
Organism: Mycobacterium tuberculosis

| Compound | test | test system | conditions | IC50 [nM] |
| --- | --- | --- | --- | --- |
| Cc1ccccc1CN1CCC(O)(c2ccc(Cl)c(C(F)(F)F)c2)CC1 | microbial growth |  |  | 740 |
| COCCOC(=O)N1CCC2(CCCN(Cc3ccc(Cl)c(Cl)c3)C2)C1 (stereo not drawn) | resazurin | wild type | 168 h, nutrient-starved | 8000 |
| COC(=O)C(=O)[C@H](CC(C)C)NC(=O)[C@H](CCCCN)NC(=O)[C@H](Cc1ccccc1)NC(=O)OCc1ccccc1 | bacterial growth | THP-1 macrophages, Mtb-lux | 48 h | 4600 ± 1200 |
| CC(C)=CCC/C(C)=C/CNCCNC1C2CC3CC(C2)CC1C3 (stereo not drawn) | bacterial growth, inhibitor | mmpL3-TetON |  | 150 |
| COc1ccc(CN2CCN(c3nc(C)ccc3C(=O)OC(C)C)CC2)cc1Cl | resazurin | wild type | 168 h, nutrient-starved | 4000 |
| CCc1ccc(C2CC(C(F)(F)F)n3ncc(C(=O)NCc4ccc(OC)cc4)c3N2)cc1 (stereo not drawn) | microbial growth |  |  | 740 |
| COc1ccc2c(=O)c(C)c(-c3ccc(N4CCCCC4)cc3)[nH]c2c1 | microbial growth | H37RV |  | 810 |
| CC(C)c1cc(N)c2cc(NC(=O)C(=O)Nc3ccc4nc(C(C)C)cc(N)c4c3)ccc2n1 | resazurin | wild type | 168 h, nutrient-starved | 500 |
| Cc1c(-c2ccc(Oc3ccc(OC(F)(F)F)cc3)nc2)[nH]c2ccccc2c1=O | microbial growth | H37RV |  | 1970 |
| CC(C)n1ncc2c(C(=O)NCC(c3cccs3)N3CCOCC3)cc(-c3ccccc3)nc21 (stereo not drawn) | bacterial growth, inhibitor | mmpL3-TetON |  | 220 |
| Cc1ccn2c(-c3csc(Nc4ccccn4)n3)c(C)nc2c1 | ATP level | H37Rv | anaerobic | 5000 |
| N=C1C(=Cc2ccc(SCc3ccc(Cl)cc3)o2)C(=O)N=C2SC(c3cccs3)=NN12 | resazurin | wild type | 168 h, nutrient-starved | 8000 |
| COc1ccc(CC(=O)Nc2c(-c3cccs3)nc3cc(C)ccn23)cc1 | microbial growth |  |  | 16300 |
| Cc1c(-c2ccc(N3CCCCC3)cc2)[nH]c2cc(F)cc(F)c2c1=O | bacterial growth | H37Rv | Wayne model, oxygen-limited | 400 ± 90 |
| Fc1cccc(CN2CCN(c3ccccc3)CC2)c1OCC1CC1 | resazurin | wild type | 168 h, nutrient-starved | 8000 |

Repeated from above:
| Compound | test | test system | conditions | IC50 [nM] |
| --- | --- | --- | --- | --- |
| COc1ccc(CN2CCN(c3nc(C)ccc3C(=O)OC(C)C)CC2)cc1Cl | resazurin | wild type | 168 h, nutrient-starved | 4000 |
